Measured values pooled from the literature.
Protocols differ between the studies behind these lines.
Organism: Leishmania infantum
Observed: parasite growth

| Compound | method | cells | time | setting | EC50 [nM] |
| --- | --- | --- | --- | --- | --- |
| O=C(NCCCCNCCCNC(=O)c1cc(Br)c(Br)o1)c1cc(Br)c(Br)o1 | MTT |  | 24 h | promastigote | ~20000 |
| CCCCCCCCCCCCCCCCOP(=O)([O-])OCC[N+](C)(C)C |  | mouse Splenocyte | 48 h | intracellular, amastigote | 2400 |
| O=C(NCCSCCNC(=O)c1cc(Br)c(Br)[nH]1)c1cc(Br)c(Br)[nH]1 | MTT |  | 24 h | promastigote | ~20000 |
| COc1cc([C@@H]2c3cc4c(cc3[C@H](O)[C@H]3COC(=O)[C@H]23)OCO4)cc(OC)c1OC |  | mouse Splenocyte | 48 h | intracellular, amastigote | 13400 |
| C=C(C)c1cn([C@@H]2O[C@H](CO)[C@@H](O)[C@H]2O)c2ncnc(C)c12 | imaging | mouse Macrophage | 5 days | intracellular, amastigote | 790 |
| O=C(CN1C(=O)Cc2c([nH]c3ccc(Br)cc23)-c2ccc(Cl)cc21)N1CCOCC1 |  | J774 | 24 h | intracellular, amastigote | 500 |
| Cc1ncnc2c1c(C#CC1CC1)cn2[C@@H]1O[C@H](CO)[C@@H](O)[C@H]1O | imaging | mouse Macrophage | 5 days | intracellular, amastigote | > 64000 |
| C[C@@H]1[C@H](O)[C@@H](C)/C=C/C=C/C=C/C=C/C=C/C=C/C=C/[C@H](O[C@@H]2O[C@H](C)[C@@H](O)[C@H](N)[C@@H]2O)C[C@@H]2O[C@](O)(C[C@@H](O)C[C@@H](O)[C@H](O)CC[C@@H](O)C[C@@H](O)CC(=O)O[C@H]1C)C[C@H](O)[C@H]2C(=O)O |  | J774 | 24 h | intracellular, amastigote | 100 |
| C=Cc1cn([C@@H]2O[C@H](CO)[C@@H](O)[C@H]2O)c2ncnc(C)c12 | imaging | mouse Macrophage | 5 days | intracellular, amastigote | > 64000 |
| C[C@@H]1[C@H](O)[C@@H](C)/C=C/C=C/C=C/C=C/C=C/C=C/C=C/[C@H](O[C@@H]2O[C@H](C)[C@@H](O)[C@H](N)[C@@H]2O)C[C@@H]2O[C@](O)(C[C@@H](O)C[C@@H](O)[C@H](O)CC[C@@H](O)C[C@@H](O)CC(=O)O[C@H]1C)C[C@H](O)[C@H]2C(=O)O |  |  | 72 h | promastigote | 770 |

Some of these lines once more:
| Compound | method | cells | time | setting | EC50 [nM] |
| --- | --- | --- | --- | --- | --- |
| O=C(NCCCCNCCCNC(=O)c1cc(Br)c(Br)o1)c1cc(Br)c(Br)o1 | MTT |  | 24 h | promastigote | ~20000 |
| CCCCCCCCCCCCCCCCOP(=O)([O-])OCC[N+](C)(C)C |  | mouse Splenocyte | 48 h | intracellular, amastigote | 2400 |
